Results from different studies.
A part holds a random share of what one study measured. Positions count from the first letter of the parent shown.

Block 1 — technique: protein binding microarray; molecule type: double-stranded DNA, one strand shown; matrix: in vitro; concentration: not given; baseline: not given; reading: higher = stronger binding
Target: Histone acetyltransferase KAT6A, both winged helices, GST fusion (KAT6A, Homo sapiens, UniProt Q92794, residues 1-181)
Setting: 8-mer, flanks averaged, mean of 2 arrays, mostly near background
Construct (chain): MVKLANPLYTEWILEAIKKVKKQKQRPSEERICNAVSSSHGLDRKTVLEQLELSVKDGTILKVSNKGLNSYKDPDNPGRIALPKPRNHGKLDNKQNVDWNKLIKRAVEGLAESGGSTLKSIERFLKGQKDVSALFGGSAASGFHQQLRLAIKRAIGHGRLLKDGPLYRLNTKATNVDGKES
| Strand | E-score |
| --- | --- |
| CACACCGG | 0.113 |
| AACCATAC | -0.103 |
| TATCGTGA | 0.00476 |
| CAGGGAAA | -0.0127 |
| CTCGGCTC | 0.0585 |
| AAGGACTA | -0.235 |
| GCGGAGCA | 0.0935 |
| CCAGACGC | 0.161 |
| AAGGGCGC | 0.12 |
| CTTAACCA | -0.199 |
| CGAAGGGC | 0.082 |
| CAGGCTAC | -0.195 |
| GTTGCCTA | -0.14 |
| CAGCTGTA | -0.0303 |
| CTCCTTAC | -0.0678 |
| ACTAGCCT | -0.195 |
| ATATTATG | 0.00145 |
| TGCTTCAA | -0.108 |
| ACCTACAT | -0.081 |
| AAGCAAGC | -0.0399 |
| AGCAGTTG | -0.194 |
| AACTGTCT | -0.11 |
| GCAGTAAC | -0.0824 |
| CACCGGTC | 0.111 |
| GGAGTCCA | -0.00651 |

Block 2 — target: CCNB3, cyclin fold, Cln2 fusion (human); technique: yeast growth competition, sequencing; matrix: yeast; setting: weak parent motif; baseline: not given; reading: higher = stronger binding
Parent: DNAH7 docking peptide (human); HELFQRLDFDNDG
| Change | normalised enrichment score |
| --- | --- |
| L7A | -0.234 |
| D12A | 0.47 |
| G13A | 0.348 |
| D10A | -0.0945 |
| Q5A | 0.599 |
| R6A | 0.865 |

Block 3 — technique: competition protein-binding microarray; molecule type: double-stranded DNA, one strand shown; matrix: in vitro; concentration: 2 µM; together with: Cbf1 competitor, 0.05 µM; reading: higher = stronger binding
Target: Phosphate system positive regulatory protein PHO4, full length, GST-tagged (PHO4, Saccharomyces cerevisiae, UniProt P07270, residues 1-312)
Setting: whole 60-bp probe, lowest competitor level
Construct (chain): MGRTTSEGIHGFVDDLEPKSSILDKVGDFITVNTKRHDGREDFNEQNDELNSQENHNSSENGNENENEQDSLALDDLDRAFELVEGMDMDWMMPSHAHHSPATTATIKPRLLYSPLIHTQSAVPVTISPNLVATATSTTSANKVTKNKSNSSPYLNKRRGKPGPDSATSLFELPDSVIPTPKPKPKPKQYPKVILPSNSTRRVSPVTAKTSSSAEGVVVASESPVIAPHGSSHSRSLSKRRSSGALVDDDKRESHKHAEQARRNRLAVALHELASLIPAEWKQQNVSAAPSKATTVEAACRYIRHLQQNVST
| Strand | fluorescence intensity |
| --- | --- |
| GGTTCTCAAAGCAGCAACGTGCTTTCTGCCACCGTTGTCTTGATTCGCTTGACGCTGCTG | 16200 a.u. |
| GTCTTGTCTCATTGTCACGACACTTTCCCCACTTCAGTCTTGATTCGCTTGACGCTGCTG | 5440 a.u. |
| CTATGACGAATCAATGACATGACAACATTTACCAATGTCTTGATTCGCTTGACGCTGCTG | 4230 a.u. |
| TTGTTCGAGTCTTTGCACGATCAAGCCTTTACTCTGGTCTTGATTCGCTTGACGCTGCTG | 4620 a.u. |
| GTTGAAGTTACCCGTCACGTCAAAGTTTTCACCGGAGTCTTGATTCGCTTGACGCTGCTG | 3820 a.u. |
| AAAGCGGTAATTTTTCACGTGCTGTCAAATATCTATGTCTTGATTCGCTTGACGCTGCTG | 16200 a.u. |
| GCATTTGGTGAGATACACGTGCCAGTTGATAAGTACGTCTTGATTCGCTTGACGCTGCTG | 19200 a.u. |
| AGGCTCTTTCACTTCAGCATGACAGTAGTCCACTCTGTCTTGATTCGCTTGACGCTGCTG | 3870 a.u. |
| CATTGGTGTCGTCATCACCTGATGCAGTTGGAGTCGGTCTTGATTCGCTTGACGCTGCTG | 4210 a.u. |
| ACTTTGTTATTAATCCACGTGAGGACCAAATCTATGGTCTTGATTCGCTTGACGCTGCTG | 15600 a.u. |
| GAGGTCGCTGCTCAACACGTACATGCAGAAGTAGTGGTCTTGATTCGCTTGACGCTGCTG | 7180 a.u. |
| CTTTCCCGATCTTGCAAGGTGGGTGTAGCACATTTGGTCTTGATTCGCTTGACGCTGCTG | 4740 a.u. |
| GGCGCAAATAGTTGCCACGTGCGATTGCGGTGTATGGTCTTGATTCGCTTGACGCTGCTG | 18400 a.u. |
| GCCATTGGATACCGTCACGTGGGTAATGGTAATCTAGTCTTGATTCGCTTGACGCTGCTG | 18200 a.u. |
| CGGGGTTAAGTTTGTGAGGTGGGTGGCTTGCAGCAGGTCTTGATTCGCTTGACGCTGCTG | 5130 a.u. |
| AAATTACTAAGTTGCCAGGTGGGTGACGCCGTATGAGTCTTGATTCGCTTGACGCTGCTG | 5770 a.u. |
| CGGGGTTAAGTTTGAACTGTGGGTGGCTTGCAGCAGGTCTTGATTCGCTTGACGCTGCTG | 4730 a.u. |
| TAGCATCATTTTCGTCACGTGCAAAATCTGCCAGTAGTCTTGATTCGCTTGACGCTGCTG | 15300 a.u. |
| ACACTTCTGAGCGGCCACGTGTAGAGGGGTAAGCTAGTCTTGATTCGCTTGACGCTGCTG | 16500 a.u. |
| TCCGCATGGAAACGAAACGTGGGTATGACTTGGAAGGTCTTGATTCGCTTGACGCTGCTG | 14100 a.u. |
| GGTTCGTAGCCAGACGCCGTGACGGTTGGGCCTCTAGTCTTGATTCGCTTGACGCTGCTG | 3350 a.u. |
| TCAAGCTATGGGATGCGCGTGCTTTGCAACTGGCTAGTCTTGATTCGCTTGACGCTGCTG | 10900 a.u. |
| CGTCCTAGTGATTGGAGAGTGGGTGCCATGAGGAAGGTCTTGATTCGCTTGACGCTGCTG | 6790 a.u. |
| TTCTGTAGGTTATACCATGTGCTAAATGTAGTGGTCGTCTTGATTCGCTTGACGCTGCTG | 9980 a.u. |
| TCCTGAATCAATAAGAAGGTGATGGGGTAGTTCGTCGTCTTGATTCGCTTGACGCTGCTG | 3680 a.u. |

Block 4 — technique: DHFR PCA, deep sequencing; matrix: yeast; together with: (+)-ABA 0.39 µM; baseline: wild-type fitted maximum; reading: higher = stronger binding
Target: ABI1, truncated, D143A, DHFR fusion (Arabidopsis thaliana)
Setting: methotrexate growth selection, single substitutions
Parent: PYL1, truncated, DHFR fusion (Arabidopsis thaliana); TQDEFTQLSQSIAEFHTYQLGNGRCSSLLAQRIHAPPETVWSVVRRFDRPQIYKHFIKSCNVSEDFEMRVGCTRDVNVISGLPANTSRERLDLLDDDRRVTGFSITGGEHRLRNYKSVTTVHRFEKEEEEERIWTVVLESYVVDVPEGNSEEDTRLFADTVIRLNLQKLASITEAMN
| Change | relative binding score |
| --- | --- |
| L93N | -1.12% |
| R32L | 44.3% |
| E14S | 4.67% |
| R74Y | -9.47% |
| F66Q | 18.4% |
| S87G | -1.42% |
| E174G | -12.2% |
| S26Q | 9.15% |
| E67F | 3.34% |
| P36V | 2.18% |
| R132K | 67.8% |
| V136E | -9.58% |
| A158V | 82.4% |
| V100L | 10.1% |
| H16C | -14% |

Block 5 — technique: RNA Bind-n-Seq; molecule type: RNA; matrix: in vitro; concentration: 365 nM; baseline: no-protein control; reading: higher = stronger binding
Target: RNA binding protein fox-1 homolog 2, RRM domain, GST-SBP tag (RBFOX2, Homo sapiens, UniProt O43251-10, residues 100-194)
Setting: natural RNA segment, single round, ends assumed
Construct (chain): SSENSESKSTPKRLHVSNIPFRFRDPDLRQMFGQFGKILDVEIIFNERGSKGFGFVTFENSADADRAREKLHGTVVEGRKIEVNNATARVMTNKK
| Strand | RBNS enrichment (R) |
| --- | --- |
| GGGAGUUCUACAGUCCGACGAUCGCAAAAGGGUCACCAGAGGCUUGAGGCCAGCCAGGGCUCCAUAAGGAGAUCAGCCGCCCCCACCCACACACACACCAAGAAAAGGCGGGGUGAGGGAGGGAUCUAAGUAGUGGAAUUCUCGGGUGCCAA | 0.387 |
| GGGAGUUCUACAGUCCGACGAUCAAAGCCAAGGGUGGUGUCCAUUUCUGGGAAUGGUUAAACACAAAAGGCUGAUAGCUGGUAUCACAUAGUUGGAGUCAGUGCAUAAUUCCAAGUGGCUUUUUUUUUUUUUGUGGAAUUCUCGGGUGCCAA | 0.551 |
| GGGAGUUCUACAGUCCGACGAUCAGCUCCUUGGAGGCUGGCAGGAGCAGAGAGGGGUGUGUGAGGGAGGAGAGCCUGUCUUGUUGGUGGGACCCUAAUUACCCCUGAGCCUCUCGGGAAUGCUUUUCCAGCAGUGGAAUUCUCGGGUGCCAA | 0.833 |
| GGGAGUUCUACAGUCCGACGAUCCCUCAGAGUGCCCUGUAUCCUACAUUUGUACAUGUAAGUAAGAGUGGCUUCCUGUCUCUCAGGUGCAUGCAGACACAGGGAAAGCAUCUUUGAGGGCAUUUAACUACAGGUGGAAUUCUCGGGUGCCAA | 3.59 |
| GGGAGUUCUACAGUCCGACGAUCAUAAACUAUAAACUUAAGGGCAAGGAGUUUAUUACAAUGUAUCUUUAUUAAAACAAAAGGGUGUAUAGUGUUCACAAACUGUGAAAAUAGUGUAAGAACUGUACAUUGUGUGGAAUUCUCGGGUGCCAA | 0.423 |
| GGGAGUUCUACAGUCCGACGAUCAAAAAUAAAAAAAUAUGUCUUCACAUAUCCCUCAUAGCUGUCUGCCUCUUGUCUGCAAUAGGAUGUUCAUGUACAAAAGUGGUUUUCUUUAAUAAAAGGUGGAAACAUUGUGGAAUUCUCGGGUGCCAA | 0.52 |
| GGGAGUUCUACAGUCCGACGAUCGUUUCAAGCCAAAAACUCUCAAGACAGAAAAUUGCACCUCAGCUGGGUUGAUUUCAAAAUGCCAGCAUGGACAGUAUGGGAGGACGAUCCGGAUGUGUCAAAGAGAACUUUGGAAUUCUCGGGUGCCAA | 2.05 |
| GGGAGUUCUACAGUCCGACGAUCCAGUCCAGAAGGGUUUCUGCAGACUGUGUUGGGUGAGACGCAGAAAGGAUGAAAUCUCAGAACACAUGUCAGCUGCUUCUCAGGAAAUCUUUUCUUUGGACAAUUCACUUUGGAAUUCUCGGGUGCCAA | 0.557 |
| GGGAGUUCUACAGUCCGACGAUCGACCCCCUCCCCAUUGAUGCCACCUCAAGGAAAGGGGGCAUGUUGCCAGCUGGUUCCCGCUAGGGAGCUUUCGAUGUGCAAUAUUAGAAAGGAGACAUGGAAAAAAAAAGUGGAAUUCUCGGGUGCCAA | 0.378 |
| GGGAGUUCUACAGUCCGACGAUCACAAAGGCCUUCAUGGGAAGCUUGCACGAGCAUCUCAAGGUGGCUGGGCAUAGCAGAGUUCAACGAGGUUUCUACAGAAAAGUGCAAUCUUUGUUGUUUUUGUAUUUAUUUGGAAUUCUCGGGUGCCAA | 0.526 |
| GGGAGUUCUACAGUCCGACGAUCGAGUCAGCCAAGGACACUGGGGCUGAAUGAAAUGCCCAUUCUUCAGGCAUUUCUACCAUAAUAUUGGAAUUGAACACAUUGGCUAAAUAAAGUUGAAAUUUUACUACCCAUGGAAUUCUCGGGUGCCAA | 0.369 |
| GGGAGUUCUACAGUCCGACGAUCACUUAAUUUUAAUGUAAUCAUGUCUAAUGAUCCUCAUCUUCAUUCCUUGAGAUUACCCAAGUACCGUCAUGACCAAGAAGCCUUUCCGUCAUUGAGUACCUGAUUUUUAAUGGAAUUCUCGGGUGCCAA | 0.243 |

Repeated from above (block 1):
| Strand | E-score |
| --- | --- |
| AACCATAC | -0.103 |
| TGCTTCAA | -0.108 |
| ACTAGCCT | -0.195 |
| ATATTATG | 0.00145 |
| AGCAGTTG | -0.194 |
| CTCCTTAC | -0.0678 |
